# Measurements from different studies.
# Protocols differ between the studies behind these lines. ± gives the spread as reported.
# B1: UGT1A1 (Homo sapiens, UniProt P22309); chain HAGKILLIPVDGSHWLSMLGAIQQLQQRGHEIVVLAPDASLYIRDGAFYTLKTYPVPFQREDVKESFVSLGHNVFENDSFLQRVIKTYKKIKKDSAMLLSGCSHLLHNKELMASLAESSFDVMLTDPFLPCSPIVAQYLSLPTVFFLHALPCSLEFEATQCPNPFSYVPRPLSSHSDHMTFLQRVKNMLIAFSQNFLCDVVYSPYATLASEFLQREVTVQDLLSSASVWLFRSDFVKDYPRPIMPNMVFVGGINCLHQNPLSQEFEAYINASGEHGIVVFSLGSMVSEIPEKKAMAIADALGKIPQTVLWRYTGTRPSNLANNTILVKWLPQNDLLGHPMTRAFITHAGSHGVYESICNGVPMVMMPLFGDQMDNAKRMETKGAGVTLNVLEMTSEDLENALKAVINDKSYKENIMRLSSLHKDRPVEPLDLAVFWVEFVMRHKGAPHLRPAAHDLTWYQYHSLDVIGFLLAVVLTVAFITFKCCAYGYRKCLGKKGRVKKAHKSKTH
# Sequence of UniProt P10632 (whole entry, looked up): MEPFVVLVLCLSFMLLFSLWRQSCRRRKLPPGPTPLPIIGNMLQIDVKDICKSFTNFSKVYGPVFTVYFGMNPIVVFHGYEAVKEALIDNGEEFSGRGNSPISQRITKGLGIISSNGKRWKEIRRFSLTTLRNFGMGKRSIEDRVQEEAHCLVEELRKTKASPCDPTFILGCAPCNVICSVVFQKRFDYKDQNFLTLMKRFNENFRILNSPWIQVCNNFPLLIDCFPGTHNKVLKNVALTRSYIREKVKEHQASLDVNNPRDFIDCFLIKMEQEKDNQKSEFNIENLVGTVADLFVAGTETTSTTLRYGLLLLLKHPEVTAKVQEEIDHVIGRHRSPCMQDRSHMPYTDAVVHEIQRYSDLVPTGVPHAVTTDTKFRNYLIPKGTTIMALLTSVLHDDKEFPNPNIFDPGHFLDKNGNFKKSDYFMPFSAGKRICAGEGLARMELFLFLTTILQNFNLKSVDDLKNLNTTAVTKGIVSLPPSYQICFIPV
# Sequence of UniProt P06133 (whole entry, looked up): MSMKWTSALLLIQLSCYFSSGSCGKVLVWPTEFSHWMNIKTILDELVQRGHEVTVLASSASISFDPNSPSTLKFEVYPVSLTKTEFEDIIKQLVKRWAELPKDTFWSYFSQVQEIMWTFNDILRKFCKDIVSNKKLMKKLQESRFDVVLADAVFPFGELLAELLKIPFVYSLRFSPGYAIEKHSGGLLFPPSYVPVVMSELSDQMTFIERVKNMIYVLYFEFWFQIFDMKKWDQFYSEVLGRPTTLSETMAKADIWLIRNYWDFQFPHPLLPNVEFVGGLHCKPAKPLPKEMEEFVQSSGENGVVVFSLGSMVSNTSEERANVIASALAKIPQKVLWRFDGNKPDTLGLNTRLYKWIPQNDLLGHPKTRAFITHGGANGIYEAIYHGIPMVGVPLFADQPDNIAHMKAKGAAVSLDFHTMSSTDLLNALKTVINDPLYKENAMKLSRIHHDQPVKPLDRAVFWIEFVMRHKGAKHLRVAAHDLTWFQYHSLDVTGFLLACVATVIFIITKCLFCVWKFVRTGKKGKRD
Molecule,target or system,assay,test system,setting,how to read,endpoint,value
"UGT1A3 (Homo sapiens, UniProt P35503)",O=c1cc(C(F)(F)F)c2ccc(O)cc2o1,steady-state kinetics,,"37 °C, not purified",,Vmax/Km,11 µL/min/mg
Ubiquitin fragment (Homo sapiens),,"NMR, refers to: Lys29",,,,pKa,11.6
insulin degludec,,,human,"subcutaneous, 0.4 IU/kg, 3 FC level, single dose, reference formulation",,apparent volume of distribution,37.6 ± 9.1 L
insulin aspart,,"ELISA after PEG precipitation, refers to: free insulin aspart","human, type 1 diabetes, serum","subcutaneous, dose not given, least squares mean, single dose",,onset of appearance,7.5 min
ACDDQNPWRAYLDLLFPTDTLLLDLLW,,ex vivo fluorescence imaging,"peptide, BALB/c mice, 4T1 tumour-bearing","intravenous, 5 nmol, 24 h post-injection, background-corrected mean fluorescence",baseline: tumour over muscle,contrast index,18.8 ± 4.2
B1 (UGT1A1),C[C@]12CC[C@@H]3c4ccc(O)cc4CC[C@H]3[C@@H]1CC[C@@H]2O,steady-state kinetics,,"37 °C, not purified",,Vmax/Km,4.1 µL/min/mg
"CYP2C8 (Homo sapiens, UniProt P10632)",CC(C)=CCc1cc2c(cc1O)O[C@H](c1ccc(O)cc1)CC2=O,steady-state kinetics,,"pH 7.4, 37 °C",,Vmax/Km,37.5 µL/min/mg
QSARYRDTEL,human SCRIB PDZ3-4 tandem (MBP fusion),automated holdup,"peptide, crude extract","concentration not given, corrected by standard peak, unit not given","baseline: biotin control resin, higher = stronger binding",binding intensity,0.684
"UGT2B4 (Homo sapiens, UniProt P06133)",CC(C)=CCc1cc2c(cc1O)O[C@H](c1ccc(O)cc1)CC2=O,steady-state kinetics,,pH 7.4,,Vmax/Km,40.1 µL/min/mg
"ptcA (Enterococcus faecalis, UniProt Q837U7)",NC(=O)OP(=O)(O)O,steady-state kinetics,,"pH 6.9, 22 °C, added: putrescine 5.0 mM",,K0.5,101 µM
pegcetacoplan,,"refers to: respiratory, thoracic, mediastinal disorders",patients with PNH,"dose not given, phase Ib trial",,number of TEAEs,8
ACEQNPIYWARYADWLFTTPLLLLDLALLVDADEGT,,ex vivo fluorescence imaging,"peptide, BALB/c mice, 4T1 tumour-bearing, 4T1 tumour","intravenous, 5 nmol, 4 h post-injection",higher = more uptake,mean fluorescence intensity,5720 ± 1280 a.u.
GGWVEKETYY,human MAGI1-3/6 PDZ construct (MBP fusion),automated holdup,"peptide, crude extract","concentration not given, corrected by standard peak, unit not given","baseline: biotin control resin, higher = stronger binding",binding intensity,-0.0842
"enzyme (Listeria monocytogenes, UniProt A0A0H3GFM5)",Nc1ncnc2c1ncn2[C@@H]1O[C@H](COP(=O)(O)OP(=O)(O)OP(=O)(O)O)[C@@H](O)[C@H]1O,steady-state kinetics,,"pH 7.5, 37 °C, KCl 500 mM, kcat per active site, positive cooperativity, added: Ti(III) citrate",,K0.5,4.4 µM
ACEEQNPWARYLEWLFPTETLLLEL,,ex vivo fluorescence imaging,"peptide, BALB/c mice, 4T1 tumour-bearing, liver","intravenous, 5 nmol, 4 h post-injection",higher = more uptake,mean fluorescence intensity,624 ± 77.2 a.u.

# A few entries again:
Molecule,target or system,assay,test system,setting,how to read,endpoint,value
"CYP2C8 (Homo sapiens, UniProt P10632)",CC(C)=CCc1cc2c(cc1O)O[C@H](c1ccc(O)cc1)CC2=O,steady-state kinetics,,"pH 7.4, 37 °C",,Vmax/Km,37.5 µL/min/mg
"enzyme (Listeria monocytogenes, UniProt A0A0H3GFM5)",Nc1ncnc2c1ncn2[C@@H]1O[C@H](COP(=O)(O)OP(=O)(O)OP(=O)(O)O)[C@@H](O)[C@H]1O,steady-state kinetics,,"pH 7.5, 37 °C, KCl 500 mM, kcat per active site, positive cooperativity, added: Ti(III) citrate",,K0.5,4.4 µM
